Measured values from different studies.
Parts stem from different laboratories: compare values within a part only.

Sample 1
Target: Histone acetyltransferase KAT6A, winged helix 1, GST fusion (KAT6A, Homo sapiens, UniProt Q92794, residues 1-85)
Method: protein binding microarray
Form: double-stranded DNA, one strand shown
Matrix: in vitro
Concentration: not given
Setting: 8-mer, flanks averaged, mean of 2 arrays, mostly near background
Baseline: not given
Direction: higher = stronger binding
Endpoint: E-score
Residues (chain): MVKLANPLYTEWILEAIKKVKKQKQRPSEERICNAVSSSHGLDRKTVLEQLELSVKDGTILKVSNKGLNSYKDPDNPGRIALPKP
CATGACAA: -0.212
GAGTTCAA: -0.19
CCCAGACG: 0.0275
GTGTGAAA: -0.158

Sample 2
Target: Ras GTPase-activating protein-binding protein 1, RRM domain (G3BP1, Homo sapiens, UniProt Q13283)
Chain of UniProt Q13283 (whole entry, looked up): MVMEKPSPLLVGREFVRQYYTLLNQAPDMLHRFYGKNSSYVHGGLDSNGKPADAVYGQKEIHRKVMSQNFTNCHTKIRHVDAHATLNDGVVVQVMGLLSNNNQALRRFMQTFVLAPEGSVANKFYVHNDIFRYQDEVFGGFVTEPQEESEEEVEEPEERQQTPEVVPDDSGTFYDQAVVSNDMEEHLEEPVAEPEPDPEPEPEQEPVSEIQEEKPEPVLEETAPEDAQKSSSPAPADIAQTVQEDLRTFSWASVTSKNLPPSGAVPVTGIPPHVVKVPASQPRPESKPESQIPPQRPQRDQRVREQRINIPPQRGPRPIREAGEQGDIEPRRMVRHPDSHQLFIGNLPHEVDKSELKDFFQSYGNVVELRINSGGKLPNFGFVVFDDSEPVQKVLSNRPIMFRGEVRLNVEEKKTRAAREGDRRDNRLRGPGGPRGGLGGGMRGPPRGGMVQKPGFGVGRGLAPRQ
Method: RNA Bind-n-Seq
Form: RNA
Matrix: in vitro
Concentration: 1 µM
Setting: whole 134-nt RNA, ends assumed
Added: 150 mM KCl
Baseline: input library
Direction: higher = stronger binding
Endpoint: log2 enrichment
Shared flanks, not repeated: GGGAGUUCUACAGUCCGACGAUC … UGGAAUUCUCGGGUGUCAAGG
CUGUGCUACACAUCGUAUGUACCGAAUCGGGGUUUUUGGGGUUUUUGGGGAAAAAAAGGGGAAAGUAUUAUGUUACGCCGUUCGGAUCUG: 0.973
GCAGGAAGUAAAAACAAAUGGAAAUGCUUCGGAUAGUGGCAGGGGUGGGGGUUCCUAAGGAAAGGGUGGGAUGGGAGUGGGUAAAGAGUU: 0.839
UAACUUUAGAGGAGGAUCUGAUGGAUAUGGCAGUGGACGUGGAUUUGGGGAUGGCUAUAAUGGGUAUGGAGGAGGACCGGGAGGUGGCAA: -0.232
GUCCUGUGCUACACAUCGUAUGUACCGAAUCGGGGAAAGGGGAAAAAGGGGAAAGGGGAAAGUAUUAUGUUACGCCGUUCGGAUCUGCAC: 1.67
GCAGGAAGUAAAAACAAAUGGAAAUCCUUCGGAUAGUGGCAGGGGUGGGGGUUGCUAAGGAAAGGGUGGGAUGGGAGUGGGUAAAGAGUU: 1.07

Sample 3
Target: Sal-like protein 4, full length isoform B (SALL4, Homo sapiens, UniProt Q9UJQ4-2, residues 1-616)
Method: universal PBM
Form: double-stranded DNA, one strand shown
Matrix: in vitro
Concentration: not given
Setting: 8-mer, flanks averaged, mean of replicates
Direction: higher = stronger binding
Endpoint: E-score
Construct (chain): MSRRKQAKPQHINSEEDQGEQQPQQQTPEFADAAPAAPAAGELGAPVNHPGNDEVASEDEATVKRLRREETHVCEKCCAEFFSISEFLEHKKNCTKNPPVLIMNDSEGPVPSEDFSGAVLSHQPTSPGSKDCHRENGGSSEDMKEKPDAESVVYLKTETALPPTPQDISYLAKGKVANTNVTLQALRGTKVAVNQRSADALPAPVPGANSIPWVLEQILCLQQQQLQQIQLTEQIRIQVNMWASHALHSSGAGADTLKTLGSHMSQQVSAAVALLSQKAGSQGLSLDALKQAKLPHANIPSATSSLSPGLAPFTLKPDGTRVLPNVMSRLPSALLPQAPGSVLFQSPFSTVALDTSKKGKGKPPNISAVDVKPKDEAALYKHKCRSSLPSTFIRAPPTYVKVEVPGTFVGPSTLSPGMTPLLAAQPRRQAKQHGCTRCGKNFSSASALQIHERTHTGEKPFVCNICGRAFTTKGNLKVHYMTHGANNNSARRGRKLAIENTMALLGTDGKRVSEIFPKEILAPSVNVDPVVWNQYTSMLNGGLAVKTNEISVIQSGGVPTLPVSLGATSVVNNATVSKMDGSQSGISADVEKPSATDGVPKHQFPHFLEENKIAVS
CCCATCAC: -0.0553
CGATCCCG: -0.339
TAAAGCTA: 0.0781
GATGTCCA: -0.0168
CTAATGTC: 0.0238

Mixed results
PhoQ, residues 284 288 289 292 302 303 AGHLVA — fold induction (PhoP, residues 12 14 15 18 19 GQALL (Escherichia coli, UniProt P23836); Sort-seq, measured: YFP reporter; E. coli; PhoQ-PhoP variant library, added: 10 µM Mg2+; baseline: high Mg2+ state, higher = stronger signaling): 17.4

Excerpt of the above (sample 3):
TAAAGCTA: 0.0781
GATGTCCA: -0.0168
